Measurements gathered from unrelated publications.
A part holds a random share of what one study measured. Values joined by “and” are separate records of one study, mostly repeats; a detail may differ.
Chain of UniProt Q15569 (whole entry, looked up): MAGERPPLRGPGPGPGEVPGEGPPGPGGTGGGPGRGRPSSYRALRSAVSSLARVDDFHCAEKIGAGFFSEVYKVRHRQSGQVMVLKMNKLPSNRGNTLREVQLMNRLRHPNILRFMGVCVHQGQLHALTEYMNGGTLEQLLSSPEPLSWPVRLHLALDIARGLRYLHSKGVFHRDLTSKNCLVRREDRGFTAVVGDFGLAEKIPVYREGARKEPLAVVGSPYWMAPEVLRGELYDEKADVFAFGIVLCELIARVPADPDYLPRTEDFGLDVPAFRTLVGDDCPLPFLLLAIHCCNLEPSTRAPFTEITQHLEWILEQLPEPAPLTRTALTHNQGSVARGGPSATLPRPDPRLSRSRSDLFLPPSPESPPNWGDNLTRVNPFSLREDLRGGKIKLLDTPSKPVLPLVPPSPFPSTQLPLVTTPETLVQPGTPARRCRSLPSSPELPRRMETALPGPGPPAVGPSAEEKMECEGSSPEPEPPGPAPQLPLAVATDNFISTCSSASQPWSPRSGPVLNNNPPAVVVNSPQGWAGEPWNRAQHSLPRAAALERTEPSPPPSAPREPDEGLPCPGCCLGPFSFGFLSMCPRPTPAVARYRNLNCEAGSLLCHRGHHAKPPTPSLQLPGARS
Chain of UniProt Q9NYY3 (whole entry, looked up): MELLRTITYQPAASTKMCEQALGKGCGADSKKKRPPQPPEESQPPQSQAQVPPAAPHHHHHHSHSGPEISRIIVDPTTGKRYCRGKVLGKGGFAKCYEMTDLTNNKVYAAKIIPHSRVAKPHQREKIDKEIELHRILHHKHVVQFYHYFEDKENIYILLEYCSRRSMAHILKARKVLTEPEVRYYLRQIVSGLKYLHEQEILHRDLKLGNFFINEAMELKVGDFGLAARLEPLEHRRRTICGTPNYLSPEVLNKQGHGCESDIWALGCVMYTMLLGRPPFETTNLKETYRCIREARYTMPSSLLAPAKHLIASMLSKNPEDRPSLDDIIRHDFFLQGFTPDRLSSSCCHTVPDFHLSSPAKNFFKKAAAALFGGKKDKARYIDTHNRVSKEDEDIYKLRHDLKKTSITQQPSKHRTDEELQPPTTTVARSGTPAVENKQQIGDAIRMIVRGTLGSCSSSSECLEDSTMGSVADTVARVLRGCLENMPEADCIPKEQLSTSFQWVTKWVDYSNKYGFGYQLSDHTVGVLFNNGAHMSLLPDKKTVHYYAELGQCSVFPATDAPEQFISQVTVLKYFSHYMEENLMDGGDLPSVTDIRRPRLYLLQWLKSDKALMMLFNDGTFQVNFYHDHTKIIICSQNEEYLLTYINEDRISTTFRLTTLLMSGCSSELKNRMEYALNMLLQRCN

Study 1
Compound: C[C@H]1CC[C@H](n2c3cnccc3c3cnc(Nc4ccc5c(n4)CCN(C(=O)CO)C5)nc32)CC1
Method: competition with immobilised ligand
Tested at: 1 µM
The remaining binding was 100% (TESK1 (Homo sapiens, UniProt Q15569); binding).
The remaining binding was 100% (MAPK13 (Homo sapiens, UniProt O15264); binding).
For CDK15 (Homo sapiens, UniProt Q96Q40); binding: remaining binding read 27%.
The remaining binding was 12% (Ribosomal protein S6 kinase alpha-1, N-terminal kinase domain (RPS6KA1, Homo sapiens, UniProt Q15418); binding).
The remaining binding was 19% (STK26 (Homo sapiens, UniProt Q9P289); binding).
It gave 74% for remaining binding (EPHB1 (Homo sapiens, UniProt P54762); cell-free assay).
TAOK1 (Homo sapiens, UniProt Q7L7X3); binding — remaining binding: 68%.
For FGFR1 (Homo sapiens, UniProt P11362); cell-free assay: remaining binding read 87%.
EPHA8 (Homo sapiens, UniProt P29322); cell-free assay — remaining binding: 88%.
For HIPK2 (Homo sapiens, UniProt Q9H2X6); binding: remaining binding read 28%.
The remaining binding was 44% (MAP3K19 (Homo sapiens, UniProt Q56UN5); binding).

Study 2
Target: DNA polymerase theta, ATPase domain (POLQ, Homo sapiens, UniProt O75417)
Chain of UniProt O75417 (whole entry, unmodified, looked up): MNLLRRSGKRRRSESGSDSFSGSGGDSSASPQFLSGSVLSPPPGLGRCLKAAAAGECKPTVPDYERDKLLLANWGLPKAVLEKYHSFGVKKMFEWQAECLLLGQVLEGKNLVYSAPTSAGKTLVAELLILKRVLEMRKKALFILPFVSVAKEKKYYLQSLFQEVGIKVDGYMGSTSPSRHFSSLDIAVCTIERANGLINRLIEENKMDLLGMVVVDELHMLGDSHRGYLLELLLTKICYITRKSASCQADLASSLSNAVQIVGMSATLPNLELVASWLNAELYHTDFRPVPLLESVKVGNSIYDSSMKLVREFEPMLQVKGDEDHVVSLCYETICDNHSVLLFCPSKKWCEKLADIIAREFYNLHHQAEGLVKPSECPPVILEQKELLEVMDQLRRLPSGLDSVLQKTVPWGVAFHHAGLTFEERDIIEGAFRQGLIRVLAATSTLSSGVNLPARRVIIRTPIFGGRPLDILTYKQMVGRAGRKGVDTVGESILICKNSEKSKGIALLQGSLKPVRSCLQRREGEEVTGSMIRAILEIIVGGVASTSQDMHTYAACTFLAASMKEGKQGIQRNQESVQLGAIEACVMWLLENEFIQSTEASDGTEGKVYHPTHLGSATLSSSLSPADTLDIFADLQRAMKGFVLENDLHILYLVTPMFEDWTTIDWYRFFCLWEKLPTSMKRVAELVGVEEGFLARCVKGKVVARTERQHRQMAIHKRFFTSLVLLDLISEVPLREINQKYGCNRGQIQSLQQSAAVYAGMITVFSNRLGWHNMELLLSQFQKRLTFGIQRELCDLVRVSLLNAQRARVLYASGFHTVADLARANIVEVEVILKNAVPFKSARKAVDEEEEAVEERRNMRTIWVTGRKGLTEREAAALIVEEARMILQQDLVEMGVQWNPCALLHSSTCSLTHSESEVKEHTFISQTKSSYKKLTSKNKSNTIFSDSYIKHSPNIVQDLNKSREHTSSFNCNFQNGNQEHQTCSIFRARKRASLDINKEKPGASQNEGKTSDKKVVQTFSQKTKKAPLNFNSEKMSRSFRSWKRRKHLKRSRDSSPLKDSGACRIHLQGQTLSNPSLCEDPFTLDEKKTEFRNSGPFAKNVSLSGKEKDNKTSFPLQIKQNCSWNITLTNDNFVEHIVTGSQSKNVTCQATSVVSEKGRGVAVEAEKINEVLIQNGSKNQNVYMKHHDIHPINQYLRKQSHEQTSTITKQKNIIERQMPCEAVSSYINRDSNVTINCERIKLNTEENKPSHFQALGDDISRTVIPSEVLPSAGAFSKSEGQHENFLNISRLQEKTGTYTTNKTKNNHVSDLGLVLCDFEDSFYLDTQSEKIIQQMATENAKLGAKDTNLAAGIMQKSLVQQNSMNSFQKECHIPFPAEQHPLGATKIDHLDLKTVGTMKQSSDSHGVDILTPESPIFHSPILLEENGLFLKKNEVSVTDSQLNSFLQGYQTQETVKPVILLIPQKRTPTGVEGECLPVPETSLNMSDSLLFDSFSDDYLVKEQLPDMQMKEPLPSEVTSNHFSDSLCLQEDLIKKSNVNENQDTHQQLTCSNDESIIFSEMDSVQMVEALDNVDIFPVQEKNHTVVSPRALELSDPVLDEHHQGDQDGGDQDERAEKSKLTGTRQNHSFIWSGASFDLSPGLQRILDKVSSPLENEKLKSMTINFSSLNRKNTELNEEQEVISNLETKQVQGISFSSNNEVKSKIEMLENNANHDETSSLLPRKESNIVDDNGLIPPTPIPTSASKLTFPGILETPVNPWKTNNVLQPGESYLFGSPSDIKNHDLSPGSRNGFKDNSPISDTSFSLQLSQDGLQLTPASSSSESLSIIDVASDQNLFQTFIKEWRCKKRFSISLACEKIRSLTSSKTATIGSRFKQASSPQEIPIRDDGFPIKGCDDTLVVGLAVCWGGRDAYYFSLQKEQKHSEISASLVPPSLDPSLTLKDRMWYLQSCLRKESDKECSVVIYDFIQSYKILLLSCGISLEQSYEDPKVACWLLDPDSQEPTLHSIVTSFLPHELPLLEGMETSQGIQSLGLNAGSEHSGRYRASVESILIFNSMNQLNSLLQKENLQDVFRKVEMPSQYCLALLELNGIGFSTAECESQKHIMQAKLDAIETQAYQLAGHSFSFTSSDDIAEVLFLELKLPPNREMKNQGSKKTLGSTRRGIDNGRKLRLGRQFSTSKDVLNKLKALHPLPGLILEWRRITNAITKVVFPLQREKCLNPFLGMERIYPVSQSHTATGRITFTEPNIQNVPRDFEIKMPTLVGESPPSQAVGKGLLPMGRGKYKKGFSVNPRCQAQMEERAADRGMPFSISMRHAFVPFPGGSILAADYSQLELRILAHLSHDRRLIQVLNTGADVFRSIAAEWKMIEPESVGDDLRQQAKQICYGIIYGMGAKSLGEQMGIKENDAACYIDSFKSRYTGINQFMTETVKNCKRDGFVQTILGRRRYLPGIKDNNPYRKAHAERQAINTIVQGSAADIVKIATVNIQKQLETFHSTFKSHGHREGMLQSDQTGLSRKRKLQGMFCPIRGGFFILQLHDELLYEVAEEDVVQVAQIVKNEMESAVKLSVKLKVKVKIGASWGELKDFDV
Read-out: enzyme activity
Action: inhibitor
Tested at: 77 µM
Relative to: untreated
`C[C@H]1C[C@@H]2[C@H]([C@@H](O)C[C@@]3(C)[C@H]2CC[C@]3(O)C(=O)CO)[C@@]2(C)C=CC(=O)C=C12` gave a remaining activity of 99.5% and 97%.
With `CC[N@@+]1(C)[C@@H]2CC[C@H]1C[C@@H](OC(=O)[C@]1(c3ccccc3)CC[C@H](C(=O)O[C@H]3C[C@H]4CC[C@@H](C3)[N@+]4(C)CC)c3ccccc31)C2` the remaining activity was 102%.
`CCCc1cc(=O)[nH]c(=S)[nH]1` gave a remaining activity of 109% and 98.8%.
`O=C(CCc1ccncc1)NNC(=O)N1Cc2ccccc2Oc2ccc(Cl)cc21` has a remaining activity of 102%.
The remaining activity of `C1=N/C2=N/c3ccc(OCCN4CCCC4)c(c3)COC/C=C/COCc3cccc(c3)C(=C1)N2` is reported as 96.9%.
`CC(=O)[C@H]1CC[C@H]2[C@@H]3CC=C4C[C@@H](O)CC[C@]4(C)[C@H]3CC[C@]12C` has a remaining activity of 93.3% and 98.7%.
For `O=C(NNc1ccccc1)c1ccncc1`, the remaining activity was 81.8%.
For `Cn1c(=O)c(-c2c(Cl)cccc2Cl)cc2cnc(Nc3ccc(N4CCOCC4)cc3)nc21`, the remaining activity was 99.7%.
With `C1COC(NC(C2CC2)C2CC2)=N1` the remaining activity was 97.2%.
The remaining activity of `Cc1cccc(Nc2nc(-c3ccncc3)cs2)c1` is reported as 103%.
The remaining activity of `COc1ccc(-n2nc(C(N)=O)c3c2C(=O)N(c2ccc(N4CCCCC4=O)cc2)CC3)cc1` is reported as 89.6%.
The remaining activity of `Nc1ccc(N2C(=O)c3ccccc3C2=O)c(Cl)c1` is reported as 85.1%.
`COc1cc(OC)c(NC(=O)Nc2cc(C)on2)cc1Cl` gave a remaining activity of 90.2%.

Study 3
Target: Homeodomain-interacting protein kinase 1 (HIPK1, Homo sapiens, UniProt Q86Z02)
Chain of UniProt Q86Z02 (whole entry, looked up): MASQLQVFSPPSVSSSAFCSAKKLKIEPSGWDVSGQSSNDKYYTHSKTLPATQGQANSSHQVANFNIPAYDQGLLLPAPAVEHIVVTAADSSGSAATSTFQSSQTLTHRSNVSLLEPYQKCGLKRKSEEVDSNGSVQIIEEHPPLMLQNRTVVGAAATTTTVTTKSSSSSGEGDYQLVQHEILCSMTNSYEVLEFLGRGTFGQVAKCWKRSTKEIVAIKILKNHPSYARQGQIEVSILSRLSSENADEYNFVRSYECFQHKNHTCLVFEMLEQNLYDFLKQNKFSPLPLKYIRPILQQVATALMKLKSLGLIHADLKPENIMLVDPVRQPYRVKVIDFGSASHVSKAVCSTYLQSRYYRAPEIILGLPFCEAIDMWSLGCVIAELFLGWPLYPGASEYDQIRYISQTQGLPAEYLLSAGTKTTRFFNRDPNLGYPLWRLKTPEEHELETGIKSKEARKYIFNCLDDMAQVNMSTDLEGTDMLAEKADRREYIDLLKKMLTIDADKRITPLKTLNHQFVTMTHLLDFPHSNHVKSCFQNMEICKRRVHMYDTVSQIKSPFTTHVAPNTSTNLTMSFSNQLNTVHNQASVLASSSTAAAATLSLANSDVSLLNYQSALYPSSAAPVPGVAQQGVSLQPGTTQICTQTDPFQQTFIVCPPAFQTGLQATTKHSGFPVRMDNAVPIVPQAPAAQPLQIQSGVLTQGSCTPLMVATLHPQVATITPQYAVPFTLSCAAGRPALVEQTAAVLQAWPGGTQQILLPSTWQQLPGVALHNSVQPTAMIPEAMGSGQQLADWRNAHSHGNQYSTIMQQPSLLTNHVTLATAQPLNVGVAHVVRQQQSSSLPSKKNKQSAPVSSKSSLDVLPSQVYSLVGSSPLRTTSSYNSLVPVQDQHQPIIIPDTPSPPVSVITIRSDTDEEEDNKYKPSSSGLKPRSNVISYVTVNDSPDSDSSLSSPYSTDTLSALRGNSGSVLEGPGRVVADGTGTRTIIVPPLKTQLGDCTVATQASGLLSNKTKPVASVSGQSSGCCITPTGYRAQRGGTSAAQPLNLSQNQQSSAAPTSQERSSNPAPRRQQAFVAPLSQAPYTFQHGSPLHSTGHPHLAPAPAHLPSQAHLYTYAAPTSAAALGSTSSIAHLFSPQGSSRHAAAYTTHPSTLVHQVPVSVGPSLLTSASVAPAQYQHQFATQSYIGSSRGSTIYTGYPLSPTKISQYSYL
Read-out: enzyme activity
Action: inhibitor
Tested at: 0.5 µM
Relative to: control
For `CCOC(=O)c1c(C)[nH]c(/C=C2\C(=O)Nc3ccccc32)c1C`, the remaining activity was 97.3%.
For `N#CC(C#N)=C(N)/C(C#N)=C/c1ccc(O)cc1`, the remaining activity was 103%.
`OCC(O)CCON=C1C(c2c(O)[nH]c3ccccc23)=Nc2ccccc21` (stereo not drawn) has a remaining activity of 96%.
The remaining activity of `COc1ccc(OC)c2c(=S)c3ccccc3[nH]c12` is reported as 107%.
With `Nc1ncnc2n[nH]c(Nc3ccc(F)cc3)c12` the remaining activity was 106%.
The remaining activity of `Cc1nc(-c2ccccc2)c(-c2ccncc2)o1` is reported as 102%.
`O=c1c2ccccc2[nH]c(=S)n1CCN1CCC(=C(c2ccc(F)cc2)c2ccc(F)cc2)CC1` gave a remaining activity of 107%.
`O=C(O)c1ccc2c3c1cccc3c(=O)n1c3ccccc3nc21` gave a remaining activity of 104%.
For `COc1ccc(C(=O)Nc2sc3c(c2C(N)=O)CCCC3)cc1OC`, the remaining activity was 90.2%.
The remaining activity of `Cc1cccc(-c2[nH]c(C(C)(C)C)nc2-c2ccc3c(c2)OCO3)n1` is reported as 101%.
`O=C1NC(=O)C(c2cn(CCCO)c3ncccc23)=C1c1cnccn1` gave a remaining activity of 84.2%.
The remaining activity of `COc1ccc(CNC(=O)Nc2ncc([N+](=O)[O-])s2)cc1` is reported as 100%.
`COc1cc2nccc(Oc3ccc(NC(=S)NC(=O)c4ccccc4C)cc3)c2cc1OC` gave a remaining activity of 100%.
`O=C1NC(=O)C(c2cn(CCCn3ccnc3)c3ccccc23)=C1Nc1ccccc1` gave a remaining activity of 102%.
The remaining activity of `Nc1ccc2ncnc(NCCc3ccc(Oc4ccccc4)cc3)c2c1` is reported as 104%.

Study 4
Compound: Cc1noc([C@H]2C[C@@H](c3ccc(C(F)(F)F)cc3)CN(C(=O)N3CCS(=O)(=O)C3)C2)n1
Method: competition with immobilised ligand
Tested at: 1 µM
PLK2 (Homo sapiens, UniProt Q9NYY3); cell-free assay — remaining binding: 100%.
MARK1 (Homo sapiens, UniProt Q9P0L2); cell-free assay — remaining binding: 91%.
For ACVRL1 (Homo sapiens, UniProt P37023); binding: remaining binding read 100%.
It gave 100% for remaining binding (RAF1 (Homo sapiens, UniProt P04049); cell-free assay).
The remaining binding was 84% (Mast/stem cell growth factor receptor Kit, autoinhibited (KIT, Homo sapiens, UniProt P10721); cell-free assay).
For Ribosomal protein S6 kinase alpha-6, N-terminal kinase domain (RPS6KA6, Homo sapiens, UniProt Q9UK32); cell-free assay: remaining binding read 98%.
For Tyrosine-protein kinase ABL1, phosphorylated (ABL1, Homo sapiens, UniProt P00519, M351T); cell-free assay: remaining binding read 84%.
Tyrosine-protein kinase ABL1, non-phosphorylated (ABL1, Homo sapiens, UniProt P00519, F317I); binding — remaining binding: 100%.
It gave 91% for remaining binding (TESK1 (Homo sapiens, UniProt Q15569); cell-free assay).
For MAP3K20 (Homo sapiens, UniProt Q9NYL2); cell-free assay: remaining binding read 87%.
For PRKCD (Homo sapiens, UniProt Q05655); cell-free assay: remaining binding read 100%.
For EGFR (Homo sapiens, UniProt P00533, L861Q); cell-free assay: remaining binding read 78%.
Tyrosine-protein kinase ABL1, phosphorylated (ABL1, Homo sapiens, UniProt P00519, H396P); cell-free assay — remaining binding: 100%.
It gave 80% for remaining binding (IKBKB (Homo sapiens, UniProt O14920); cell-free assay).
The remaining binding was 100% (DCLK3 (Homo sapiens, UniProt Q9C098); cell-free assay).

For quick reference, copied from above (study 2):
With `CC[N@@+]1(C)[C@@H]2CC[C@H]1C[C@@H](OC(=O)[C@]1(c3ccccc3)CC[C@H](C(=O)O[C@H]3C[C@H]4CC[C@@H](C3)[N@+]4(C)CC)c3ccccc31)C2` the remaining activity was 102%.
`CCCc1cc(=O)[nH]c(=S)[nH]1` gave a remaining activity of 109% and 98.8%.
`O=C(CCc1ccncc1)NNC(=O)N1Cc2ccccc2Oc2ccc(Cl)cc21` has a remaining activity of 102%.
The remaining activity of `C1=N/C2=N/c3ccc(OCCN4CCCC4)c(c3)COC/C=C/COCc3cccc(c3)C(=C1)N2` is reported as 96.9%.
`CC(=O)[C@H]1CC[C@H]2[C@@H]3CC=C4C[C@@H](O)CC[C@]4(C)[C@H]3CC[C@]12C` has a remaining activity of 93.3% and 98.7%.
For `O=C(NNc1ccccc1)c1ccncc1`, the remaining activity was 81.8%.
For `Cn1c(=O)c(-c2c(Cl)cccc2Cl)cc2cnc(Nc3ccc(N4CCOCC4)cc3)nc21`, the remaining activity was 99.7%.
With `C1COC(NC(C2CC2)C2CC2)=N1` the remaining activity was 97.2%.
The remaining activity of `Cc1cccc(Nc2nc(-c3ccncc3)cs2)c1` is reported as 103%.
